Measured values pooled from the literature.
Lines come from different studies, so protocols differ. Several values in a cell are separate wells, animals, samples, runs or records. Numbers after ± are the reported error.
Cell line: A549

SMILES = Cc1ccccc1/C=C/C(=O)N[C@@H]1C(=O)N[C@@H](Cc2ccccc2)C(=O)N[C@H](CC(C)C)C(=O)N[C@@H](C(C)C)C(=O)N[C@@H](C)C(=O)N[C@H](CCC(N)=O)C(=O)NCC(=O)N2CCC[C@H]2C(=O)N[C@@H](CCCNC(=N)N)C(=O)N[C@H](Cc2ccccc2)C(=O)O[C@H]1C; endpoint = IC50; value = > 20000 nM
SMILES = O=C1C=CC(=C(c2ccc(O)cc2)c2c(C#Cc3ccc(O)cc3)cccc2-c2ccc(O)cc2)C=C1; read-out = cell growth or viability; technique = MTT; time = 48 h; endpoint = IC50; value = 15300 nM
SMILES = CO[C@@H]1[C@@H](O)[C@H](O[C@H]2CC[C@@]3(C)[C@H](CC[C@@H]4[C@@H]3CC[C@]3(C)[C@@H](C5=CC(=O)OC5)[C@@H](O)C[C@]43O)C2)O[C@H](C)[C@@H]1O[C@@H]1O[C@H](CO)[C@@H](O)[C@H](O)[C@H]1O; read-out = cell growth or viability; technique = MTT; concentration = 5 µM; time = 24 h; endpoint = inhibition; value = 73.9%
SMILES = N#Cc1ccc(N2N=C3c4ccc(C(=O)O)cc4CCC3C2C2CCCC2)cc1Cl (stereo not shown); read-out = cell growth or viability; time = 48 h; endpoint = EC50; value = > 50 µM
SMILES = CC(C)Cc1ccc(C(C)C(=O)[O-])cc1.CC(C)Cc1ccc(C(C)C(=O)[O-])cc1.[Cu+2].c1ccncc1.c1ccncc1 (stereo not shown); read-out = cell growth or viability; technique = MTT; time = 48 h; endpoint = GI50; value = 8 µM
SMILES = O=C1C(Cl)=C(Cl)C(=O)c2ccccc21; read-out = cell growth or viability; technique = MTT; endpoint = IC50; value = 38100 nM
SMILES = Cc1ccccc1/C=C/C(=O)N[C@H]1COC(=O)[C@H](CC(=O)O)NC(=O)[C@H]([C@@H](O)C(=O)c2ccccc2N)NC(=O)[C@@H](Cc2ccccc2)NC(=O)[C@@H](NC(=O)[C@@H](Cc2ccccc2)NC(=O)CN)[C@@H](C)OC1=O; endpoint = IC50; value = > 20000 nM
SMILES = Cc1ccc(C(C)C)cc1.Cc1ccc(C(C)C)cc1.Cc1ccc(C(C)C)cc1.Cc1ccc(C(C)C)cc1.O=S(=O)(O)C(F)(F)F.O=S(=O)(O)C(F)(F)F.O=S(=O)(O)C(F)(F)F.O=S(=O)(O)C(F)(F)F.c1ccc2c3c4ccccc4c(c2c1)-c1cn(nn1)-c1cc[n+](cc1)[Ru-]1[O]c2ccc4c5c(ccc(c25)=[O+]1)=[O+][Ru-]([O]4)[n+]1ccc(cc1)-n1cc(nn1)-c1c2ccccc2c(c2ccccc12)-c1cn(nn1)-c1cc[n+](cc1)[Ru-]1[O]c2ccc4c5c(ccc(c25)=[O+]1)=[O+][Ru-]([O]4)[n+]1ccc(cc1)-n1cc-3nn1; read-out = cell growth or viability; technique = MTT; time = 24 h; endpoint = IC50; value = 11900 nM
SMILES = Cc1cc(=O)oc2cc(OCCCCCC[Se]C#N)ccc12; read-out = cell growth or viability; technique = SRB; endpoint = GI50; value = 4.3 µM
SMILES = C[C@H]1O[C@@H](O[C@H]2CC[C@@]3(C)[C@H](CC[C@@H]4[C@@H]3CC[C@]3(C)[C@@H](C5=CC(=O)OC5)[C@@H](O)C[C@]43O)C2)C[C@H](O)[C@@H]1O; read-out = cell growth or viability; technique = MTT; concentration = 5 µM; time = 24 h; endpoint = inhibition; value = 74.5%
SMILES = O=C1C=CC(=O)c2ccccc21; technique = MTT; relative to = IC50 MRC-5 over IC50 A549; endpoint = selectivity index; value = 0.69
SMILES = COC(=O)[C@@H](NC(=O)[C@@H](NC(=O)[C@@H](NC(=O)[C@@H]1CCCN1C(=O)[C@H](C)NC(=O)OC(C)(C)C)C(C)C)C(C)C)C(C)C; read-out = cell growth or viability; technique = SRB; endpoint = IC50; value = 1380 nM and 1360 nM and 1150 nM
SMILES = CC(C)C[C@H](NC(=O)[C@H](CC(=O)O)NC(=O)CNC(=O)[C@@H](N)CCCNC(=N)N)C(=O)N[C@@H](C)C(=O)N[C@H](C(=O)N[C@@H](CC(C)C)C(=O)N[C@@H](CCCNC(=N)N)C(=O)N[C@@H](CCC(N)=O)C(=O)N[C@@H](CC(C)C)C(=O)N[C@@H](C)C(=O)N[C@@H](CCC(N)=O)C(=O)N[C@@H](CCC(=O)O)C(=O)N[C@@H](CC(=O)O)C(=O)NCC(=O)N[C@H](C(=O)N[C@H](C(=O)NCC(=O)N[C@H](C(=O)N[C@@H](CCCNC(=N)N)C(=O)NCCOCCOCCOCCOCCOCCOCCOCCOCCOCCOCCOCCOCCC(=O)N[C@@H](CS)C(N)=O)C(C)C)C(C)C)C(C)C)[C@@H](C)O; read-out = phage binding; technique = phage binding; relative to = targeting over control phage; endpoint = selectivity ratio; value = 9.2 ± 1.6
SMILES = CC(C)C12OC1C1OC13C1(C)CCC4=C(COC4=O)C1CC1OC13C2OC(=O)CCC(=O)OC1OC(CO)C(O)C(O)C1O (stereo not shown); read-out = cell growth or viability; technique = XTT; time = 47 h; endpoint = IC50; value = 1700 nM
SMILES = O=c1n(CCNCCOS(=O)(=O)c2ccccc2)c(=O)n(S(=O)(=O)c2ccccc2)c(=O)n1S(=O)(=O)c1ccccc1; read-out = cell growth or viability; technique = MTT; concentration = 25 µg/mL; time = 24 h; endpoint = viability; value = 60.7%
SMILES = CSCC[C@H](NC(=O)[C@@H](NC(=O)[C@H](CCC(N)=O)NC(=O)[C@H](CO)NC(=O)[C@@H](N)C(C)C)[C@@H](C)O)C(=O)N[C@@H](CCCNC(=N)N)C(=O)N[C@@H](CCC(N)=O)C(=O)N[C@H](C(=O)N[C@@H](C)C(=O)N[C@H](C(=O)N1CCC[C@H]1C(=O)N[C@@H](CC(C)C)C(=O)N[C@@H](CC(C)C)C(=O)N[C@@H](Cc1c[nH]c2ccccc12)C(=O)N[C@@H](Cc1ccccc1)C(=O)N[C@@H](Cc1c[nH]c2ccccc12)C(=O)N[C@H](C(=O)NCC(=O)N[C@@H](CO)C(=O)N[C@@H](CC(C)C)C(=O)NCCOCCOCCOCCOCCOCCOCCOCCOCCOCCOCCOCCOCCC(=O)N[C@@H](CS)C(N)=O)[C@@H](C)O)C(C)C)[C@@H](C)O; read-out = phage binding; technique = phage binding; relative to = targeting over control phage; endpoint = selectivity ratio; value = 12 ± 2.8
SMILES = CC(C)(C)C(=O)OCOP(=O)(OCOC(=O)C(C)(C)C)C1CCCN(O)C1=O (stereo not shown); endpoint = Log10LC50; value = > -4 log M
SMILES = C[C@H]1O[C@@H](O[C@H]2[C@@H](O)C[C@H](O[C@H]3[C@@H](O)C[C@H](O[C@H]4CC[C@@]5(C)[C@H](CC[C@@H]6[C@@H]5C[C@@H](O)[C@]5(C)[C@@H](C7=CC(=O)OC7)[C@@H](O)C[C@]65O)C4)O[C@@H]3C)O[C@@H]2C)C[C@H](O)[C@@H]1O; read-out = cell growth or viability; technique = MTT; concentration = 5 µM; time = 24 h; endpoint = inhibition; value = 70.6%
SMILES = O=C1C=CC(=O)c2c(O)cccc21; read-out = cell growth or viability; technique = MTT; endpoint = IC50; value = 275000 nM
SMILES = CC(=O)[C@@H]1CCCN1C(=O)[C@@H]1CCCN1C(=O)[C@H](Cc1ccccc1)NC(=O)[C@@H](NC(=O)[C@@H](NC(=O)[C@@H](NC(=O)[C@@H]1CCCN1C(=O)[C@H](C)NC(=O)OC(C)(C)C)C(C)C)C(C)C)C(C)C; read-out = cell growth or viability; technique = SRB; endpoint = IC50; value = 2550 nM and 2300 nM and 2410 nM
SMILES = C[C@H]1O[C@@H](O[C@H]2CC[C@@]3(C)[C@H](CC[C@@H]4[C@@H]3CC[C@]3(C)[C@@H](C5=CC(=O)OC5)[C@@H](O)C[C@]43O)C2)C[C@H](O)[C@@H]1O[C@@H]1O[C@H](CO)[C@@H](O)[C@H](O)[C@H]1O; read-out = cell growth or viability; technique = MTT; concentration = 5 µM; time = 24 h; endpoint = inhibition; value = 75.9%
SMILES = CCCc1cc2cc(-n3nc(C)c4c3CC3(CCC3)CC4=O)cc(N3CCC(O)CC3)c2c(=O)[nH]1; read-out = cell growth or viability; technique = MTS; endpoint = IC50; value = 13100 nM

For quick reference, copied from above:
SMILES = CC(=O)[C@@H]1CCCN1C(=O)[C@@H]1CCCN1C(=O)[C@H](Cc1ccccc1)NC(=O)[C@@H](NC(=O)[C@@H](NC(=O)[C@@H](NC(=O)[C@@H]1CCCN1C(=O)[C@H](C)NC(=O)OC(C)(C)C)C(C)C)C(C)C)C(C)C; read-out = cell growth or viability; technique = SRB; endpoint = IC50; value = 2550 nM and 2300 nM and 2410 nM
SMILES = CCCc1cc2cc(-n3nc(C)c4c3CC3(CCC3)CC4=O)cc(N3CCC(O)CC3)c2c(=O)[nH]1; read-out = cell growth or viability; technique = MTS; endpoint = IC50; value = 13100 nM
SMILES = Cc1cc(=O)oc2cc(OCCCCCC[Se]C#N)ccc12; read-out = cell growth or viability; technique = SRB; endpoint = GI50; value = 4.3 µM
